# Measured values gathered from unrelated publications.
# Numbered parts are unrelated; each lists some results of a single study. Positions count from the first letter of the parent shown.

# Series 1
# Target: RNA binding protein fox-1 homolog 2, RRM domain, GST-SBP tag (RBFOX2, Homo sapiens, UniProt O43251-10, residues 100-194)
# Method: RNA Bind-n-Seq
# Form: RNA
# Medium: in vitro
# Concentration: 365 nM
# Setting: natural RNA segment, single round, ends assumed
# Reference: no-protein control
# Reading: higher = stronger binding
# Constant ends, left off below: GGGAGUUCUACAGUCCGACGAUC … UGGAAUUCUCGGGUGCCAA
# Residues (chain): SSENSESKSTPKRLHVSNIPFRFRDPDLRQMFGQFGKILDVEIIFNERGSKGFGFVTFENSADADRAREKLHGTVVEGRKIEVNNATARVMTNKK
Strand,RBNS enrichment (R)
UUUCUUCAGAGUCAACCUUGGCCCUGAGAAGUAUGUCCUCCUGGUGUGCUCAGGCUCAACGGCAGUCUGGUGGCUGAAGGCACUUGGCCUCCUAAACCAAGCAGAAUUUU,0.27
AGUAAUUAAUAGGAGGCCCAGCCUGGCAGACGCUUGCUGACGCUCCUUGGCUCUUGCCUGCUUGUCUUUUUCAUUCCAUCAUGGCUUCCCUUUUCAUAGCUGGAUCUUCC,0.418
GUAGCAAUGGCCAGAGCCUCUGGCCCCUCACCCACCAUGGACCAGCCCAUUGGCCGAGCUCCUGGGGAGCUCCUGGGACCCUUGGCUAUGAAAAUGAGCCCUGGCUCCCA,0.187
AGGAGUGUGAGAGGAUGGGGGAAGCACUGUGGGAAGACCACCAAAGAUGGCUGGACAGUGGGAGAGAGCACGUUGUGAAGCAUCCCAGCCUCGUGUUGAGGUUCCAGACU,0.969
CUGUAGCUGCCGAACCAGUAGCUCCUAAGAGCACAACCCAGGAUGGCCCAUCUGCUGCCCACCAAGUCCCUUUCCAGCCACUGUGUGCUGGGGGCUUUCGGGGGCAGUUG,0.248
UAGGUUGCUUAAAAGGGACAGUAUUCUCAGUGCUCUCCUACCCCACCUCAUGCCUGGCCCCCCUCCAGGCAUGCUGGCCUCCCAAUAAAGCUGGACAAGAAGCUGCUAUG,0.415

# Series 2
# Target: PABPC1L2, full length, GST fusion (mouse, UniProt A0ABA7IW68)
# Method: RNAcompete
# Form: RNA
# Medium: in vitro
# Concentration: 20 nM
# Setting: 7-mer, probes averaged, single round
# Reference: mean of 7-mers
# Reading: higher = stronger binding
# Residues (chain): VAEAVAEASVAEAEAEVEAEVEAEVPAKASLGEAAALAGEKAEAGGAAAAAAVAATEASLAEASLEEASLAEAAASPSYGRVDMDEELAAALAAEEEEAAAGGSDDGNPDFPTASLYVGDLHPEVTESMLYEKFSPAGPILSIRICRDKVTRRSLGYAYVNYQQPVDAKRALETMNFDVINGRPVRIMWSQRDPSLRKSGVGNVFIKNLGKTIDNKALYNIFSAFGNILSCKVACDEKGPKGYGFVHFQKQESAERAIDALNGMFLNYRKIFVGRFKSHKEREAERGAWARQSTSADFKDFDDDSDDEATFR
Strand,7-mer Z-score
GGAGCUG,0.166
CCGCGUC,-0.436
UUCUUUC,-0.351
GGCCUAG,-0.202
AGACCCC,-0.405
CCAGUUA,-0.188
AAAAACC,11.2

# Series 3
# Target: CCNB1, cyclin fold, Cln2 fusion (human)
# Method: yeast growth competition, sequencing
# Medium: yeast
# Setting: weak parent motif
# Reference: not given
# Reading: higher = stronger binding
# Starting sequence: WEE1 docking peptide (human); HKTFRKLRLFDTP
Variant,normalised enrichment score
H1I,1.34
K6A,0.539
K2W,0.278
L9S,1.33

# Single results of other studies
Substance,target,test,test system,setting,scale,endpoint,value
"PhoQ, residues 284 288 289 292 302 303 NLMGRA","PhoP, residues 12 14 15 18 19 STHWV (Escherichia coli, UniProt P23836)","Sort-seq, measured: YFP reporter",E. coli,"PhoQ-PhoP variant library, together with: 10 µM Mg2+","reference: high Mg2+ state, higher = stronger signaling",fold induction,0.668
